Measured values gathered from unrelated publications.
Lines come from different studies, so protocols differ. ± marks the error that the study gave.
lecB: Fucose-binding lectin PA-IIL (lecB, Pseudomonas aeruginosa, UniProt Q9HYN5)

CC[C@H](C)[C@H](NC(=O)[C@H](CCCCN)NC(=O)[C@H](Cc1ccccc1)NC(=O)[C@H](CCCCNC(=O)[C@H](CC(C)C)NC(=O)[C@@H]1CCCN1C(=O)[C@H](CCCCN)NC(=O)C[C@@H]1O[C@@H](C)[C@@H](O)[C@@H](O)[C@@H]1O)NC(=O)[C@H](CC(C)C)NC(=O)[C@@H]1CCCN1C(=O)[C@H](CCCCN)NC(=O)C[C@@H]1O[C@@H](C)[C@@H](O)[C@@H](O)[C@@H]1O)C(N)=O
Kd (lecB; binding, ITC; pH 7.5): 123 nM

CSCC[C@H](NC(C)=O)C(=O)N[C@H](C(=O)N[C@@H](Cc1ccc(O)cc1)C(=O)N[C@@H](CCCNC(=N)N)C(=O)N[C@H]1CSCc2cc3cc(c2)CSC[C@H](NC(=O)[C@H](Cc2ccc(O)cc2)NC(=O)[C@@H]2CCCN2C1=O)C(=O)N[C@@H](CC(C)C)C(=O)N[C@@H](Cc1ccc(O)cc1)C(=O)N[C@@H](CC(C)C)C(=O)N[C@H](C(=O)N[C@@H](CC(C)C)C(=O)N[C@@H](CC(C)C)C(=O)N[C@H](C(=O)NCC(=O)N[C@@H](CO)C(=O)NCC(=O)N[C@@H](CO)C(=O)NCC(=O)N[C@@H](CO)C(=O)N[C@@H](CC(=O)O)C(=O)N[C@@H](Cc1ccc(O)cc1)C(=O)N[C@@H](CCCCN)C(=O)N[C@@H](CC(=O)O)C(=O)N[C@@H](CC(=O)O)C(=O)N[C@@H](CC(=O)O)C(=O)N[C@@H](CC(=O)O)C(=O)N[C@@H](CCCCN)C(N)=O)[C@@H](C)O)CSC3)C(C)C
Kd (Fibroblast growth factor receptor 1 (FGFR1, Homo sapiens, UniProt P11362); binding, BLI): 840 nM

CC(C)P(=[Se])(NP(=[Se])(C(C)C)C(C)C)C(C)C
Kd (Alpha-amylase (Bacillus subtilis, UniProt P00691); fluorescence quenching; 310 K): 165800 ± 825 nM

CC(C)C[C@H](NC(=O)[C@H](C)NC(=O)[C@H](CCCCN)NC(=O)[C@H](CCCNC(=N)N)NC(=O)[C@H](CCC(=O)O)NC(=O)[C@H](C)NC(=O)[C@H](CCC(=O)O)NC(=O)[C@H](CCCCN)NC(=O)[C@H](CCCCN)NC(=O)[C@H](CC(=O)O)NC(=O)[C@H](Cc1c[nH]cn1)NC(=O)[C@H](CC(=O)O)NC(=O)[C@H](C)NC(=O)[C@H](C)NC(=O)[C@H](CCC(=O)O)NC(=O)[C@H](CO)NC(=O)[C@H](CCCCN)NC(=O)[C@H](CC(C)C)NC(=O)[C@H](CCCNC(=N)N)NC(=O)[C@H](CCC(=O)O)NC(=O)[C@H](CC(C)C)NC(=O)[C@H](CCC(=O)O)NC(=O)[C@H](C)NC(=O)[C@H](CCC(=O)O)NC(=O)[C@H](CCC(=O)O)NC(=O)[C@H](Cc1c[nH]cn1)NC(=O)[C@H](CCCNC(=N)N)NC(=O)[C@H](CCC(=O)O)NC(=O)[C@H](CC(N)=O)NC(=O)[C@H](CCCCN)NC(=O)[C@H](CC(C)C)NC(=O)[C@H](CCCNC(=N)N)NC(=O)[C@H](CCC(N)=O)NC(=O)[C@H](CC(C)C)NC(=O)[C@H](CCC(=O)O)NC(=O)[C@H](C)NC(=O)[C@H](CC(=O)O)NC(=O)[C@H](C)NC(=O)[C@@H](NC(=O)[C@H](CC(C)C)NC(=O)[C@H](CCCCN)NC(=O)[C@H](CCC(=O)O)NC(=O)[C@@H](NC(=O)[C@H](CO)NC(=O)CN)C(C)C)[C@@H](C)O)C(=O)N[C@@H](CCC(=O)O)C(=O)N[C@@H](CC(=O)O)C(=O)N[C@@H](CCCCN)C(=O)N[C@@H](CC(C)C)C(=O)N[C@@H](C)C(=O)N[C@@H](CC(=O)O)C(=O)N[C@@H](Cc1ccc(O)cc1)C(=O)O
Kd (Plasminogen, kringle 2 domain (PLG, Homo sapiens, UniProt P00747, C188G/E240D/L256Y); isothermal titration calorimetry; K2-plasminogen; pH 7.4, 25 °C): 42 ± 4 nM

CC[C@H](C)[C@H](NC(=O)[C@H](CCCNC(=N)N)NC(=O)[C@H](CC(N)=O)NC(=O)[C@H](CCC(=O)O)NC(=O)[C@@H]1CCCN1C(=O)[C@H](CC(=O)O)NC(=O)[C@H](CC(N)=O)NC(=O)[C@H](CC(=O)O)NC(=O)[C@H](CC(=O)O)NC(=O)[C@@H](N)CO)C(=O)N[C@@H](C)C(=O)N[C@@H](CCCCN)C(=O)N[C@@]1(C)CCCC=CCCC[C@@](C)(C(=O)N[C@@H](CCC(=O)O)C(=O)N[C@H](C(=O)N[C@@H](CCCCN)C(=O)N[C@@H](C)C(=O)N[C@@H](CC(N)=O)C(=O)N[C@@H](CC(C)C)C(=O)N[C@@H](CO)C(=O)O)[C@@H](C)CC)NC(=O)[C@H](CC(C)C)NC(=O)[C@H](CC(C)C)NC(=O)[C@H](CCSC)NC1=O
Kd (Death domain-associated protein 6, residues 55-144 (Homo sapiens, UniProt Q9UER7); isothermal titration calorimetry; pH 7.5, 25 °C): 180 nM

C[C@@H](O)[C@H](NC(=O)[C@H](CCCCN)NC(=O)CCC(=O)O)C(=O)NCC(=O)N[C@@H](CC(=O)O)C(=O)N[C@@H](CCC(=O)O)C(=O)N[C@@H](CCCCN)C(=O)N[C@@H](CCCCN)C(=O)NCC(=O)NCC(=O)N[C@@H](Cc1ccc(O)cc1)C(=O)NCC(=O)N[C@@H](CCCNC(=N)N)C(=O)N[C@@H](CCCCN)C(=O)N[C@@H](CCCCN)C(=O)N[C@@H](CCCNC(=N)N)C(=O)N[C@@H](CCCNC(=N)N)C(=O)N[C@@H](CCC(N)=O)C(=O)N[C@@H](CCCNC(=N)N)C(=O)N[C@@H](CCCNC(=N)N)C(=O)N[C@@H](CCCNC(=N)N)C(N)=O
Kd (Heat shock protein HSP 90-alpha (HSP90AA1, Homo sapiens, UniProt P07900); binding, field-effect biosensor; pH 7.4): 16400 ± 3440 nM

CC[C@H](C)[C@H](NC(=O)[C@H](Cc1c[nH]cn1)NC(=O)[C@H](CC(=O)O)NC(=O)[C@H](CCCNC(=N)N)NC(=O)[C@H](CO)NC(=O)[C@H](Cc1ccc(O)cc1)NC(=O)[C@H](CC(=O)O)NC(=O)[C@@H](NC(=O)[C@@H](N)CO)C(C)C)C(=O)N[C@@H](C)C(=O)N[C@@H](CO)C(=O)N[C@@H](CCC(=O)O)C(=O)O
Kd (Gastrin-releasing peptide (Homo sapiens, UniProt P07492); biolayer interferometry): 42 nM

CC[C@H](C)[C@H](NC(=O)CNC(C)=O)C(=O)N[C@@H](CCCNC(=N)N)C(=O)N[C@@H](CCC(=O)O)C(=O)N[C@@H](C)C(=O)N[C@H](C(=O)N[C@@H](CC(C)C)C(=O)N[C@@H](CCCNC(=N)N)C(=O)N[C@@H](C)C(=O)N[C@@H](Cc1c[nH]c2ccccc12)C(=O)N[C@@H](CCC(=O)O)C(=O)N[C@@H](CCCNC(=N)N)C(=O)N[C@@H](CCCNC(=N)N)C(=O)N[C@@H](Cc1ccc(O)cc1)C(=O)NCC(=O)N[C@@H](Cc1ccccc1)C(=O)N1CCC[C@H]1C(=O)N[C@@H](CCCNC(=N)N)C(=O)N1CCC[C@H]1C(=O)N[C@@H](CC(C)C)C(=O)N[C@@H](CCCNC(=N)N)C(=O)N[C@@H](CO)C(=O)N[C@@H](CCC(=O)O)C(N)=O)[C@@H](C)O
Kd (Antirepressor protein CarS (carS, Myxococcus xanthus, UniProt Q06911); isothermal titration calorimetry; pH 7.5, 30 °C): 200 ± 17 nM

CC[C@H](C)[C@H](NC(=O)[C@H](Cc1c[nH]cn1)NC(=O)[C@H](CCCCNC(=O)[C@@H](NC(=O)[C@H](CCCCN)NC(=O)CSC[C@H](NC(=O)[C@H](Cc1ccccc1)NC(=O)[C@H](CCCCNC(=O)[C@H](CC(C)C)NC(=O)[C@@H]1CCCN1C(=O)[C@H](CCCCN)NC(=O)CCS[C@@H]1O[C@H](CO)[C@H](O)[C@H](O)[C@H]1O)NC(=O)[C@H](CC(C)C)NC(=O)[C@@H]1CCCN1C(=O)[C@H](CCCCN)NC(=O)C[C@@H]1O[C@@H](C)[C@@H](O)[C@@H](O)[C@@H]1O)C(N)=O)[C@@H](C)CC)NC(=O)[C@@H](NC(=O)[C@H](CCCCN)NC(=O)CSC[C@H](NC(=O)[C@H](Cc1ccccc1)NC(=O)[C@H](CCCCNC(=O)[C@H](CC(C)C)NC(=O)[C@@H]1CCCN1C(=O)[C@H](CCCCN)NC(=O)CCS[C@@H]1O[C@H](CO)[C@H](O)[C@H](O)[C@H]1O)NC(=O)[C@H](CC(C)C)NC(=O)[C@@H]1CCCN1C(=O)[C@H](CCCCN)NC(=O)C[C@@H]1O[C@@H](C)[C@@H](O)[C@@H](O)[C@@H]1O)C(N)=O)[C@@H](C)CC)C(N)=O
Kd (lecB; binding, ITC; pH 7.5): 179 nM

CC(C)CC(NC(=O)C(NC(=O)NC(C(=O)O)C(C)C)C1CCNC(=N)N1)C(=O)NCCCNC(C(=O)O)C(OC1OC(CN)C(O)C1O)C1OC(n2ccc(=O)[nH]c2=O)C(O)C1O (stereo not shown)
Kd (Phospho-N-acetylmuramoyl-pentapeptide-transferase (mraY, Aquifex aeolicus, UniProt O66465); isothermal titration calorimetry; together with: 10 mM MgCl2): 17.2 nM

CCC(C(=O)OC)C1N=C(c2ccc(Cl)cc2)c2cc(OC)ccc2-n2c(C)nnc21 (stereo not shown)
Kd (Bromodomain-containing protein 2, BD1 (BRD2, Homo sapiens, UniProt P25440); binding, ITC): 9000 nM

CC[C@H](C)[C@@H]1NC(=O)[C@@H]2CCCN2C(=O)[C@H](Cc2c[nH]c3ccccc23)NC(=O)[C@H](CO)NC(=O)[C@H](Cc2c[nH]c3ccccc23)NC(=O)[C@H](CC(N)=O)NC(=O)[C@H](CCCCN)NC(=O)[C@H](CCSC)NC(=O)[C@@H]2CSCCC(=O)N3CN(CN(C3)C(=O)CCSC[C@H](NC(=O)[C@H](C)N)C(=O)N3CCC[C@H]3C(=O)N[C@@H](Cc3ccccc3)C(=O)NCC(=O)N2)C(=O)CCSC[C@@H](C(=O)N[C@H](C(=O)N[C@@H](CC(N)=O)C(=O)N[C@@H](CCCCN)C(=O)N(C)CC(=O)N(C)CC(=O)N(C)CC(=O)N(C)CC(=O)N(C)CC(=O)N(C)CC(=O)N[C@@H](CCCCNC(=O)c2ccc(C(=O)O)c(-c3c4ccc(=O)cc-4oc4cc(O)ccc34)c2)C(N)=O)[C@@H](C)O)NC(=O)[C@H](Cc2c[nH]c3ccccc23)NC1=O
Kd (Nectin-4, extracellular domain (Homo sapiens, UniProt Q96NY8); binding, fluorescence polarization): 19.4 nM

O=C(O)COc1ccccc1
Kd (PIN8 (Arabidopsis thaliana, UniProt Q9LFP6); cell-free assay): 489000 nM

N=C(N)NCCC[C@H](NC(=O)[C@H](Cc1ccccc1)NC(=O)[C@@H]1CCCN1C(=O)[C@H](CO)NC(=O)[C@H](Cc1ccccc1)NC(=O)CNC(=O)[C@@H]1CCCN1C(=O)[C@@H]1CCCN1C(=O)[C@@H](N)CCCNC(=N)N)C(=O)N[C@@H](CCCCNS(=O)(=O)c1ccc(C2=c3cc4c5c(c3Oc3c2cc2c6c3CCCN6CCC2)CCC[N+]=5CCC4)c(S(=O)(=O)[O-])c1)C(=O)O
Kd (Oligopeptide-binding protein OppA (oppA, Lactococcus lactis subsp. lactis, UniProt Q07741); binding, fluorescence anisotropy; pH 6, 18 °C, together with: dye-labelled peptide): 8500 ± 400 nM

CC[C@H](C)[C@H]1C(=O)O[C@H](C(C)C)C(=O)N(C)[C@@H]([C@@H](C)CC)C(=O)O[C@H](C(C)C)C(=O)N(C)[C@@H]([C@@H](C)CC)C(=O)O[C@H](C(C)C)C(=O)N1C
Kd (Heat shock protein HSP 90-beta (HSP90AB1, Homo sapiens, UniProt P08238); binding, SPR; pH 7.4): 14500 nM

N[C@@H](Cc1ccccc1)P(=O)(O)O
Kd (PAL1 (Petroselinum crispum, UniProt P24481, Y110F); ITC; pH 8.0, 30 °C): 8900 nM

A few entries again:
CC[C@H](C)[C@H](NC(=O)[C@H](Cc1c[nH]cn1)NC(=O)[C@H](CC(=O)O)NC(=O)[C@H](CCCNC(=N)N)NC(=O)[C@H](CO)NC(=O)[C@H](Cc1ccc(O)cc1)NC(=O)[C@H](CC(=O)O)NC(=O)[C@@H](NC(=O)[C@@H](N)CO)C(C)C)C(=O)N[C@@H](C)C(=O)N[C@@H](CO)C(=O)N[C@@H](CCC(=O)O)C(=O)O
Kd (Gastrin-releasing peptide (Homo sapiens, UniProt P07492); biolayer interferometry): 42 nM

CC[C@H](C)[C@H](NC(=O)CNC(C)=O)C(=O)N[C@@H](CCCNC(=N)N)C(=O)N[C@@H](CCC(=O)O)C(=O)N[C@@H](C)C(=O)N[C@H](C(=O)N[C@@H](CC(C)C)C(=O)N[C@@H](CCCNC(=N)N)C(=O)N[C@@H](C)C(=O)N[C@@H](Cc1c[nH]c2ccccc12)C(=O)N[C@@H](CCC(=O)O)C(=O)N[C@@H](CCCNC(=N)N)C(=O)N[C@@H](CCCNC(=N)N)C(=O)N[C@@H](Cc1ccc(O)cc1)C(=O)NCC(=O)N[C@@H](Cc1ccccc1)C(=O)N1CCC[C@H]1C(=O)N[C@@H](CCCNC(=N)N)C(=O)N1CCC[C@H]1C(=O)N[C@@H](CC(C)C)C(=O)N[C@@H](CCCNC(=N)N)C(=O)N[C@@H](CO)C(=O)N[C@@H](CCC(=O)O)C(N)=O)[C@@H](C)O
Kd (Antirepressor protein CarS (carS, Myxococcus xanthus, UniProt Q06911); isothermal titration calorimetry; pH 7.5, 30 °C): 200 ± 17 nM
